# Results pooled from the literature.
# Compare with care: the assays were run in different laboratories.
SMILES,assay,system,setting,endpoint,value
CN1CC[C@@H](c2c(O)cc(O)c3c(=O)cc(-c4ccc(C(F)(F)F)cc4Cl)oc23)[C@@H]1CO,item: Dizziness,AML,"oral, 150 mg, intermittent dosing",patients with adverse event,25%
N[C@@H]1c2ccccc2OC12CCN(c1cnc3c(N4CCCc5ncccc54)n[nH]c3n1)CC2,phase Ia,patients advanced metastatic solid tumours,"oral, dose not given",patients with dose interruptions,66%
C[C@@H]1OC(=O)NN=C1c1ccc(-c2ccc(F)cc2)c(C(F)(F)F)c1,,"patients, phase I trial","oral, dose not given, all arms, any grade TEAE",patients with non-cardiac chest pain,20%
CCN(CCO)CCCC(C)Nc1ccnc2cc(Cl)ccc12 (stereo not shown),item: Hypocalcemia grade 2,newly diagnosed glioblastoma patients,"oral, 800 mg/dose, with radiotherapy and temozolomide",patients with adverse event,33%
CO[C@H]1C[C@@H]2CC[C@@H](C)[C@@](O)(O2)C(=O)C(=O)N2CCCC[C@H]2C(=O)O[C@H]([C@H](C)C[C@@H]2CC[C@@H](OC(=O)NCCOCCOCCOCCOCCOCCOCCOCCOCCC(=O)N3CCc4cc(Cn5nc(-c6ccc7oc(N)nc7c6)c6c(N)ncnc65)ccc4C3)[C@H](OC)C2)C[C@@H](O)[C@H](C)/C=C(\C)[C@@H](O)[C@@H](OC)C(=O)[C@H](C)C[C@H](C)/C=C/C=C/C=C/1C,item: treatment-related mucositis,patients with advanced solid tumours,"intravenous, 8 to 12 mg, DM plus TM, weekly",patients with AE,31%
O=C1Nc2cc3[nH]nc(-c4ccncc4)c3cc2CN1Cc1ccccc1,CTCAE v4.03,advanced solid tumour patients,"intravenous, 3.6 mg/kg, schedules 1/2",patients with back pain,67%
C=CCNc1c(O)cc2c(O)c1C[C@@H](C)C[C@H](OC)[C@H](O)[C@@H](C)/C=C(\C)[C@H](OC(N)=O)[C@@H](OC)/C=C\C=C(/C)C(=O)N2,,"unresectable or metastatic STS, GIST, other","intravenous, 400 mg/m^2",patients with constipation TEAE,22%
Nc1nc2cc(-c3ccc4ncc(C(=O)N5CCOCC5)n4c3)ccc2o1,item: Hypokalemia,advanced solid tumour patients,"dose not given, all grades, all doses",patients with adverse event,20%
CC(=O)c1c(C)c2cnc(Nc3ccc(C4CCN(CCS(C)(=O)=O)CC4)cn3)nc2n(C2CCCC2)c1=O,,HR+/HER2- advanced breast cancer patients,"oral, 50 mg",patients with serious AE,0%
COc1c(OCCCN2CCOCC2)ccc2c1N=C(NC(=O)c1cnc(N)nc1)N1CCN=C21,item: Hyperglycaemia,patients with advanced malignancies,"intravenous, dose not given, any grade, all cohorts, added: gemcitabine",patients with adverse event,80%
